Assay results gathered from unrelated publications.
± marks the error that the study gave.
DRD3: D(3) dopamine receptor (DRD3, Homo sapiens, UniProt P35462)
UniProt P35462, sequence (whole entry, looked up): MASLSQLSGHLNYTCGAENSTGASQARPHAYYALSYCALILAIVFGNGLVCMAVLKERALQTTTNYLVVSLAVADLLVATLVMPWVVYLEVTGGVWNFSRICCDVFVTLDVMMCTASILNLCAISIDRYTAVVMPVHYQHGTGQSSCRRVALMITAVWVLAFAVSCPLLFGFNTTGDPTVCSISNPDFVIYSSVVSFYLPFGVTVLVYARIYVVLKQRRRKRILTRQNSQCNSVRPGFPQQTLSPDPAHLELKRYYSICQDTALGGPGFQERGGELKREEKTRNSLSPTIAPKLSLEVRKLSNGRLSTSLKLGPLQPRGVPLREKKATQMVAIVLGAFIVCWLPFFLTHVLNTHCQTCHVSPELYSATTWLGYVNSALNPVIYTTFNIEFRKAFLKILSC
SLC10A1: Hepatic sodium/bile acid cotransporter (SLC10A1, Homo sapiens, UniProt Q14973)
UniProt Q14973, sequence (whole entry, looked up): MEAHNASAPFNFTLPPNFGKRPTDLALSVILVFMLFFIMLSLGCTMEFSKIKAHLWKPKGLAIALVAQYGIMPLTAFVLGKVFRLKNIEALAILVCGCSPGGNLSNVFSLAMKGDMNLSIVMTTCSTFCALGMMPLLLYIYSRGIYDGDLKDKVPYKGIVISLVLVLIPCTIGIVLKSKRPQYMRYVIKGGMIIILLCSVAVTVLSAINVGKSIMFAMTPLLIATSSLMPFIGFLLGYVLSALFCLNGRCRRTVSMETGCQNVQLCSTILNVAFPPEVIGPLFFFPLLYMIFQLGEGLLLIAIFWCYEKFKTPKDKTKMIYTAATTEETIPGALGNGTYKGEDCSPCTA
ESR1: Estrogen receptor (ESR1, Homo sapiens, UniProt P03372)
UniProt P03372, sequence (whole entry, looked up): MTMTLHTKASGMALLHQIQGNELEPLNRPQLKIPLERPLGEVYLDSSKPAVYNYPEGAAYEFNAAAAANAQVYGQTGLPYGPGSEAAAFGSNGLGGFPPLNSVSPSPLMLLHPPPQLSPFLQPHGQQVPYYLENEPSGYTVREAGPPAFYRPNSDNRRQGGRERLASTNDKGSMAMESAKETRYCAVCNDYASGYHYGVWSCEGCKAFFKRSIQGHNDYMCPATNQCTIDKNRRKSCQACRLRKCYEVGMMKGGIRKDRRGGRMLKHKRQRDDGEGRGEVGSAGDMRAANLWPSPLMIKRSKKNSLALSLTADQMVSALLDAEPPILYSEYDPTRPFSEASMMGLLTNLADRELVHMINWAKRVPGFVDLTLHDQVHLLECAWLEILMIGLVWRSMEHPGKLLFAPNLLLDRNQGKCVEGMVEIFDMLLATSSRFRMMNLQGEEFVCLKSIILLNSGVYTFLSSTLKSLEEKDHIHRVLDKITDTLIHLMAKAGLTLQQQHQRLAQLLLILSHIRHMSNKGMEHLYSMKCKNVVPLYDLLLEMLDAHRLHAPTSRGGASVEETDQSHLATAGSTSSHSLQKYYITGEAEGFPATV
CDK2: Cyclin-dependent kinase 2 (CDK2, Homo sapiens, UniProt P24941)
CDK2 with cyclin A: Cyclin-dependent kinase 2, with cyclin A (CDK2, Homo sapiens, UniProt P24941)
UniProt P20309, sequence (whole entry, looked up): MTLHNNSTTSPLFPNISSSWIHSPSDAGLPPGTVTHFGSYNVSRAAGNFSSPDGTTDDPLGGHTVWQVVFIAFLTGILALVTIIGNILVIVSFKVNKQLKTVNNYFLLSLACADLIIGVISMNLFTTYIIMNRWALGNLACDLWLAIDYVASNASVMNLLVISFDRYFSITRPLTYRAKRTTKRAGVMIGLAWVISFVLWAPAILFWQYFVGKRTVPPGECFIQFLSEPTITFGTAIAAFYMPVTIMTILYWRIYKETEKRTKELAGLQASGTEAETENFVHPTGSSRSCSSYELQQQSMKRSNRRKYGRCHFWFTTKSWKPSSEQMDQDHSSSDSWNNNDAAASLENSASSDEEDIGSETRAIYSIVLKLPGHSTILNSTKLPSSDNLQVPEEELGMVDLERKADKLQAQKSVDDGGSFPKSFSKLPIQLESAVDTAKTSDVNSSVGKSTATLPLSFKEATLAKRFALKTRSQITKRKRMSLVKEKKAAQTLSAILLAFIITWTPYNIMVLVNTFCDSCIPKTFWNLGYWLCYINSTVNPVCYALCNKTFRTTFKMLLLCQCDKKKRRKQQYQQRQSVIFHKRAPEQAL
UniProt P45985, sequence (whole entry, looked up): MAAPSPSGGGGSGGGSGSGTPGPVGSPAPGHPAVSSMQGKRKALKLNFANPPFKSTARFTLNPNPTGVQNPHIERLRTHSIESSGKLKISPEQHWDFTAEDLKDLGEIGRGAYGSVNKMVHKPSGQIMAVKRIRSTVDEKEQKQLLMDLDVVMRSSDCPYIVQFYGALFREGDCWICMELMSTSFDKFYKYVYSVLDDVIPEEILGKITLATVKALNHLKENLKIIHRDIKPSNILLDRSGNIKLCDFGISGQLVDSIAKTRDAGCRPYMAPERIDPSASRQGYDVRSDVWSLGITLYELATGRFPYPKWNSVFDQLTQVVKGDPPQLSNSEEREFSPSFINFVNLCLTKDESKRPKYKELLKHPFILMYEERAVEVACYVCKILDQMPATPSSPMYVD

| SMILES | target | test | system | conditions | measurement | result |
| --- | --- | --- | --- | --- | --- | --- |
| CCN(CC)S(=O)(=O)c1c(C)[nH]c(C)c1C(=O)Nc1ccc(C(F)(F)F)c(Cl)c1 | DRD3 | β-arrestin recruitment, antagonist, PathHunter |  | with: dopamine EC80 | IC50 | > 100 µM |
| Cc1ncc([N+](=O)[O-])n1CCO | SLC10A1 | taurocholate uptake, inhibitor | NTCP-expressing HEK293 | with: 10 µM taurocholate | Ki | 369 ± 83 µM |
| COc1ccc(/C=C/C(=O)c2c(O)cc(OC)cc2OC)cc1 | ESR1 | array formation, agonist | ERα-GFP PRL-HeLa | 1 h | EC50 | 6.2 µM |
| COc1ccccc1NC(=O)CSc1nncn1C | CDK2 | binding |  |  | Kd | > 100 µM |
| Cc1ccc(NS(=O)(=O)c2c(C)[nH]c(C)c2C(=O)N2CCC(F)(F)C2)nc1Br | DRD3 | β-arrestin recruitment, antagonist, PathHunter |  | with: dopamine EC80 | IC50 | > 100 µM |
| O=C(O)c1cccc(CSc2nnc(-c3ccncc3)o2)c1 | CDK2 with cyclin A |  |  |  | Kd | > 100 µM |
| CCc1nn(CCCN2CCN(c3cccc(Cl)c3)CC2)c(=O)n1CCOc1ccccc1 | SLC10A1 | taurocholate uptake, inhibitor | NTCP-expressing HEK293 | with: 10 µM taurocholate | Ki | 100 ± 8 µM |
| O=C(O[C@@H]1Cc2c(O)cc(O)cc2O[C@@H]1c1ccc(O)c(O)c1)c1cc(O)c(O)c(O)c1 | ESR1 | array formation, agonist | ERα-GFP PRL-HeLa | 1 h | EC50 | 6.16 µM |
| COc1ccc2[nH]cc(CCNC(=O)Nc3ccc(Cl)c(Cl)c3)c2c1 | CDK2 | binding |  |  | Kd | > 100 µM |
| CC(C)=CCc1cc2c(cc1O)O[C@H](c1ccc(O)cc1)CC2=O | ESR1 | array formation, agonist | ERα-GFP PRL-HeLa | 1 h | EC50 | 8.75 µM |
| Cc1nonc1OCCNc1cc(N2CCOCC2)ccc1[N+](=O)[O-] | CDK2 with cyclin A |  |  |  | Kd | > 100 µM |
| Cn1cc2c(C(=O)O)ccc(NS(=O)(=O)c3ccc(OCC4CCC4)c(Cl)c3)c2n1 | Muscarinic acetylcholine receptor M3 (CHRM3, Homo sapiens, UniProt P20309) | antagonist |  |  | EC50 | > 10 µM |
| CN(C)C(=O)c1c[nH]cc1S(=O)(=O)Nc1ccc(C(F)(F)F)c(Cl)c1 | DRD3 | Go activation, antagonist, BRET |  | with: dopamine | IC50 | > 100 µM |
| O=S(=O)(NCc1ccccn1)c1cc(Cl)c(Cl)cc1Cl | CDK2 with cyclin A |  |  |  | Kd | > 100 µM |
| O=C1[C@H](CC[C@H](O)c2ccc(F)cc2)[C@@H](c2ccc(O)cc2)N1c1ccc(F)cc1 | SLC10A1 | taurocholate uptake, inhibitor | NTCP-expressing HEK293 | with: 10 µM taurocholate | Ki | 53.8 ± 3.3 µM |
| CC[C@@H]1[C@H](F)C(=O)N[C@@H]1COc1nccc2cc(C(N)=O)c(OC)cc12 | Dual specificity mitogen-activated protein kinase kinase 4 (MAP2K4, Homo sapiens, UniProt P45985) | ATP probe binding, KiNativ profiling, refers to: Lys1 probe site | THP-1 cell lysate |  | IC50 | 3.9 µM |
| Cc1[nH]c(C)c(S(=O)(=O)Nc2ccc(NS(C)(=O)=O)c(Cl)c2)c1C(=O)N1CCC(F)(F)C1 | DRD3 | Go activation, antagonist, BRET |  | with: dopamine | IC50 | > 100 µM |

| SMILES | target | test | system | conditions | measurement | result |
| --- | --- | --- | --- | --- | --- | --- |
| CC[C@]1(O)C[C@@H]2CN(CCc3c([nH]c4ccccc34)[C@@](C(=O)OC)(c3cc4c(cc3OC)N(C)[C@H]3[C@@](O)(C(=O)OC)[C@H](OC(C)=O)[C@]5(CC)C=CCN6CC[C@]43[C@@H]65)C2)C1 | SLC10A1 | taurocholate uptake, inhibitor | NTCP-expressing HEK293 | with: 10 µM taurocholate | Ki | 159 ± 140 µM |
| Cc1[nH]c(C)c(S(=O)(=O)Nc2ccc(B3OC(C)(C)C(C)(C)O3)cc2)c1C(=O)N1CCC(F)(F)C1 | DRD3 | β-arrestin recruitment, antagonist, PathHunter |  | with: dopamine EC80 | IC50 | > 100 µM |
| COc1cc(O)c(CC=C(C)C)c2c1C(=O)CC(c1ccc(O)cc1)O2 (stereo not shown) | ESR1 | array formation, agonist | ERα-GFP PRL-HeLa | 1 h | EC50 | 2.08 µM |
| COc1ccc([N+](=O)[O-])cc1NC(=O)C(C)Oc1ccccc1C (stereo not shown) | CDK2 with cyclin A |  |  |  | Kd | > 100 µM |
| CCC1(C)CC(=O)NC1=O (stereo not shown) | SLC10A1 | taurocholate uptake, inhibitor | NTCP-expressing HEK293 | with: 10 µM taurocholate | Ki | 513 ± 169 µM |
| O=C(/C=C/c1ccc(O)cc1)c1ccc(O)cc1O | ESR1 | array formation, agonist | ERα-GFP PRL-HeLa | 1 h | EC50 | 0.828 µM |
| Cc1[nH]c(C)c(S(=O)(=O)Nc2ccc(C(F)(F)F)c(Cl)c2)c1C(=O)N1CCN(C(=O)OC(C)(C)C)CC1 | DRD3 | β-arrestin recruitment, antagonist, PathHunter |  | with: dopamine EC80 | IC50 | > 100 µM |
| COc1ccc(-c2cc(=O)c3c(O)cc(O)cc3o2)cc1 | ESR1 | array formation, agonist | ERα-GFP PRL-HeLa | 1 h | EC50 | 5.64 µM |
| Cc1[nH]c(C)c(S(=O)(=O)Nc2ccc([S+](C)[O-])c(Cl)c2)c1C(=O)N1CCC(F)(F)C1 (stereo not shown) | DRD3 | β-arrestin recruitment, antagonist, PathHunter |  | with: dopamine EC80 | IC50 | > 100 µM |
| COC(=O)c1ccc(NC(=O)CSc2nnnn2-c2ccccc2OC)cc1 | CDK2 | binding |  |  | Kd | > 100 µM |
| Cc1cn([C@H]2C[C@H](N=[N+]=[N-])[C@@H](CO)O2)c(=O)[nH]c1=O | SLC10A1 | taurocholate uptake, inhibitor | NTCP-expressing HEK293 | with: 10 µM taurocholate | Ki | 351 ± 72 µM |
| COc1cc(NC(=O)CSc2nncn2C)cc(OC)c1OC | CDK2 with cyclin A |  |  |  | Kd | > 100 µM |
| Cc1ccc(NS(=O)(=O)c2c(C)[nH]c(C)c2C(=O)NC2CCCC2)cc1Cl | DRD3 | Go activation, antagonist, BRET |  | with: dopamine | IC50 | > 100 µM |
| COc1ccc(-c2oc3c(CC=C(C)C)c(O[C@@H]4O[C@H](CO)[C@@H](O)[C@H](O)[C@H]4O)cc(O)c3c(=O)c2O[C@@H]2O[C@@H](C)[C@H](O)[C@@H](O)[C@H]2O[C@@H]2O[C@@H](C)[C@H](O)[C@@H](O)[C@H]2O)cc1 | ESR1 | array formation, agonist | ERα-GFP PRL-HeLa | 1 h | EC50 | 2.63 µM |
| CCCNCC(O)COc1ccccc1C(=O)CCc1ccccc1 (stereo not shown) | SLC10A1 | taurocholate uptake, inhibitor | NTCP-expressing HEK293 | with: 10 µM taurocholate | Ki | 402 ± 116 µM |
| COc1c(O[C@@H]2O[C@H](CO)[C@@H](O)[C@H](O)[C@H]2O)cc2occ(-c3ccc(O)cc3)c(=O)c2c1O | ESR1 | array formation, agonist | ERα-GFP PRL-HeLa | 1 h | EC50 | 3.37 µM |
| Cc1ccc(NC(=O)c2ccc(CN3CCN(C)CC3)cc2)cc1Nc1nccc(-c2cccnc2)n1 | SLC10A1 | taurocholate uptake, inhibitor | NTCP-expressing HEK293 | with: 10 µM taurocholate | Ki | 673 ± 130 µM |
